Measured values gathered from unrelated publications.
“And” joins repeats or separate records; there may be more than shown. ± gives the spread as reported.
PPO3: PPO3 (Agaricus bisporus, UniProt C7FF04)
Proline--tRNA ligase: Proline--tRNA ligase (Plasmodium falciparum, UniProt Q8I5R7)
T1: DNA hairpin, hairpin, TTTT loop; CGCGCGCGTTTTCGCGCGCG

SMILES | target | assay | system | conditions | scale | quantity | value
Cc1ccc(NC(=O)c2c(C)oc3ccc(O)cc23)cc1 | MYC Pu22 G-quadruplex DNA | surface plasmon resonance |  | concentration not given |  | binding | no binding
CCOC(=O)[C@H](CCCNC(N)=O)NC(=O)[C@H](Cc1c[nH]c2ccccc12)NC(=O)[C@@H]1CCCCN1C(=O)[C@H](Cc1ccccc1)N(C)C(=O)CCl | Peptidyl-prolyl cis-trans isomerase NIMA-interacting 1 (PIN1, Homo sapiens, UniProt Q13526) | intact mass spectrometry |  | 1 h, room temperature |  | covalent labelling | 100%
COc1cc(C2CC(=O)Nc3nc(N)[nH]c(=O)c32)ccc1O (stereo not shown) | uncharacterized protein (Leishmania donovani, UniProt A0A3Q8IA09) | competitive ITC |  | with: aspartate 60 µM |  | ΔH | -17.2 ± 1.3 kcal/mol
Cc1cccc(C)c1NC(=O)CC(C)NCc1ccccc1 (stereo not shown) | Sodium channel protein type 4 subunit alpha (SCN4A, Homo sapiens, UniProt P35499, F1586C) | phasic block of sodium current, whole-cell patch clamp | HEK293 | 10 Hz stimulation |  | Hill coefficient | 1 ± 0.1
CC[C@H](C)[C@H](NC(=O)[C@H](CCC(=O)O)NC(=O)[C@H](CCC(=O)O)NC(=O)[C@H](Cc1ccccc1)NC(=O)[C@H](CCCCN)NC(=O)[C@@H]1CCCN1C(=O)[C@H](Cc1c[nH]cn1)NC(=O)[C@H](CCCCN)NC(=O)[C@H](CO)NC(=O)[C@H](CC(C)C)NC(=O)[C@H](Cc1c[nH]cn1)NC(C)=O)C(=O)N[C@@H](CC(C)C)C(=O)N[C@H](C(=O)N[C@@H](CCCNC(=N)N)C(=O)N[C@@H](CC(C)C)C(=O)N[C@@H](CCCNC(=N)N)C(=O)N[C@@H](CC(C)C)C(=O)N[C@@H](CCC(N)=O)C(N)=O)[C@@H](C)O | Calmodulin-1 (CALM1, Homo sapiens, UniProt P0DP23) | ITC | full-length calmodulin | concentration not given, with: Ca2+ |  | binding stoichiometry | 2
CSCC[C@H](NC(=O)[C@H](CCCNC(=N)N)NC(=O)[C@H](CCSC)NC(=O)[C@H](CCC(N)=O)NC(=O)[C@H](CO)NC(=O)[C@@H](NC(=O)[C@@H]1CCCN1)C(C)C)C(=O)N[C@@H](C)C(=O)N[C@H](C(=O)N1CCC[C@H]1C(=O)N[C@@H](CC(C)C)C(=O)N[C@@H](CC(C)C)C(=O)N[C@@H](CC(=O)O)C(=O)N[C@@H](CCCNC(=N)N)C(=O)N1CCC[C@H]1C(=O)O)[C@@H](C)O | MHC class II I-A g7 (Mus musculus, UniProt P04228+Q31135) | peptide-MHC complex stability, peptide dissociation |  | pH 7.4, loaded 1 µM, 18 h, 37 °C, with: 100 µM mouse serum albumin peptide |  | dissociation half-life | ~70 h
CC12CC(O)C3CC1(OC1OC(CO)C(O)C(O)C1O)C3(COC(=O)c1ccccc1)C(=O)O2 (stereo not shown) | D-amino-acid oxidase (Dao, Mus musculus, UniProt P18894) |  | mouse brain homogenate | 10 µg/mL, 30 min, 37 °C |  | enzyme activity | no effect
CC[C@H](C)[C@H](NC(=O)[C@H](CCCCN)NC(=O)[C@H](CCCCN)NC(=O)[C@@H](NC(=O)[C@H](CCC(=O)O)NC(=O)[C@H](CCC(=O)O)NC(=O)[C@H](CCC(=O)O)NC(=O)[C@H](CO)NC(=O)[C@H](CC(C)C)NC(=O)[C@H](CC(=O)O)NC(=O)[C@H](CC(C)C)NC(=O)CNC(=O)[C@H](CCCNC(=N)N)NC(=O)[C@H](CC(C)C)NC(=O)[C@H](CO)NC(=O)CNC(=O)CNC(=O)CNC(=O)CCCC[C@@H]1SC[C@@H]2NC(=O)N[C@@H]21)C(C)C)C(=O)N[C@@H](CC(C)C)C(=O)N[C@@H](CC(=O)O)C(=O)N[C@@H](CCC(=O)O)C(=O)N[C@H](C(=O)N[C@H](C(=O)N[C@@H](CCCCN)C(=O)N[C@@H](CC(=O)O)C(=O)N[C@@H](C)C(=O)N[C@@H](CO)C(=O)N[C@@H](CC(=O)O)C(=O)O)C(C)C)[C@@H](C)CC | Fab B11 antibody (human) | binding, biolayer interferometry |  |  | relative to: alanine mutant over wild type | Kd ratio | 0.9
Cc1ccc(C(=O)Nc2cccc(C(F)(F)F)c2)cc1Nc1nc(-c2cccnc2)nc2c1cnn2C | Ephrin type-B receptor 4 (Mus musculus, UniProt P54761) | receptor phosphorylation, inhibitor | mouse, lung | oral, 50 mg/kg |  | lung tissue concentration | ~1 nmol/g
[11CH3]Nc1ccc(-c2nc3ccc(O)cc3o2)cn1 | Amyloid-beta precursor protein (APP, Homo sapiens, UniProt P05067) | binding, PET, reference Logan | control subjects, grey matter |  | relative to: cerebellum | distribution volume ratio | 1.01 ± 0.05
COc1cc(CC(=O)O)ccc1O | p-hydroxyphenylacetate 3-hydroxylase, reductase component (C1-hpah, Acinetobacter baumannii, UniProt Q6Q271) | ITC |  | pH 7 |  | -TΔS | -2.99 ± 0.03 kcal/mol
CNc1ccccc1C(=O)O[C@H]1C[C@H](n2cnc3c(N)ncnc32)O[C@@H]1COP(=O)(O)OP(=O)(O)O | Unconventional myosin-Va (Gallus gallus, UniProt Q02440, D297C/G292C/I296C/S293C/V295G) | stopped-flow FRET |  | 15 °C, with: MgCl2 10 mM |  | dissociation rate constant | 3.04 ± 0.01 s⁻¹
Cc1ncsc1-c1ccc([C@@H]2CCCCCCNC(=O)C[C@@H]3N=C(c4ccc(cc4)OCCCCC(=O)N[C@@H](C(C)(C)C)C(=O)N4C[C@H](O)C[C@H]4C(=O)N2)c2c(sc(C)c2C)-n2c(C)nnc23)cc1 | Bromodomain-containing protein 4, long isoform (BRD4, Homo sapiens, UniProt O60885) | degrader, immunoblotting, item: BRD4 long isoform | PC-3 | 100 nM, 24 h |  | degradation | 94%
CC(C)C[C@H](NC(=O)[C@H](CCC(=O)O)NC(=O)[C@@H](N)CS)C(=O)N[C@@H](CC(N)=O)C(=O)O | PPO3 | enzyme activity, inhibitor |  | 50 µM |  | remaining activity | 81.5%
CC(=O)N[C@@H](CC(=O)O)C(=O)N[C@@H](CCC(=O)O)C(=O)N[C@H](C(=O)N[C@@H](CC(=O)O)C(=O)Nc1ccc2c(C)cc(=O)oc2c1)C(C)C | Caspase-7 (CASP7, Homo sapiens, UniProt P55210) | substrate cleavage, substrate, fluorogenic AMC release |  | enzyme 0.25 activity units/µL |  | Vmax | 1270 ± 38.8 RFU/min
Cc1cc(N2CC[C@@](C#N)(C3(C)CC3)C2=O)cc(C(=O)NCc2cc(F)cc(-c3cnn(C)c3)c2)n1 | Proline--tRNA ligase | thermal shift |  | with: L-proline and ATP 2 mM |  | melting temperature | 81.5 °C
CC(C)C[C@H](NC(=O)[C@H](CC(C)C)NC(=O)[C@H](CCC(=O)O)NC(=O)[C@@H](N)CS)C(=O)O | PPO3 | enzyme activity, inhibitor |  | 200 µM |  | remaining activity | 40.6%
CSCC[C@H](NC(=O)[C@H](CO)NC(=O)[C@@H](NC(=O)[C@H](CCC(N)=O)NC(=O)[C@@H](CCCNC(=N)N)NC(=O)[C@@H](CCCNC(=N)N)NC(=O)[C@@H](CCCCN)NC(=O)[C@@H](CCCNC(=N)N)NC(C)=O)[C@@H](C)O)C(=O)N[C@H](C(=O)N[C@@H](CC(=O)O)C(=O)N[C@@H](Cc1ccccc1)C(=O)N[C@@H](Cc1ccc(O)cc1)C(=O)N[C@@H](Cc1c[nH]cn1)C(=O)N[C@@H](CO)C(=O)N[C@H](CCCCN)C(=O)N[C@H](CCCNC(=N)N)C(=O)N[C@H](CCCNC(=N)N)C(N)=O)[C@@H](C)O | Proliferating cell nuclear antigen (PCNA, Homo sapiens, UniProt P12004) | binding, isothermal titration calorimetry |  | pH 7.4, 25 °C, 400 mM NaCl, with: p21 peptide |  | entropic term −TΔS | 12.9 ± 0.478 kcal/mol
C[C@H](NC(=O)[C@H](Cc1ccc(O)cc1)NC(=O)[C@H](Cc1ccc(O)cc1)NC(=O)[C@H](CCC(=O)O)NC(=O)[C@H](CCCCN)NC(=O)[C@H](CCC(N)=O)NC(=O)[C@H](CO)NC(=O)[C@H](CO)NS(=O)(=O)c1cccc2c(N(C)C)cccc12)C(=O)O | Rho guanine nucleotide exchange factor TIAM1, PDZ domain (TIAM1, Homo sapiens, UniProt Q13009) | fluorescence anisotropy |  | 25 °C |  | binding free energy | -5.35 ± 0.05 kcal/mol
C=C1CN(S(=O)(=O)c2ccc(C)cc2)CCCN(Cc2ccccc2)CCCN(S(=O)(=O)c2ccc(C)cc2)C1 | Endoplasmic reticulum lectin 1 (ERLEC1, Homo sapiens, UniProt Q96DZ1) | inhibitor, Western blot, item: ERLEC1 | HEK-293T transfected | 10 µM, 24 h |  | protein level | inhibited
OC1CCCN(CCCNc2cc(-c3ccccc3)nc3ccnn23)C1 (stereo not shown) | DNA dC->dU-editing enzyme APOBEC-3B, C-terminal domain (Homo sapiens, UniProt Q9UH17) | binding, 1H CPMG NMR |  | 20 µM protein |  | signal attenuation | 59% and 58.8%
CC(C)C[C@H](NC(=O)CNC(=O)[C@@H](NC(=O)[C@H](Cc1ccc(OP(=O)(O)O)cc1)NC(=O)[C@@H](NC(=O)[C@H](C)NC(=O)[C@H](CC(=O)O)NC(=O)CNC(=O)CNC(=O)CNC(=O)[C@@H](N)CS)C(C)C)[C@@H](C)O)C(=O)N[C@@H](CC(N)=O)C(=O)N[C@H](C(=O)N[C@@H](CCCNC(=N)N)C(=O)N[C@@H](CC(N)=O)C(=O)N[C@@H](CCC(N)=O)C(=O)N[C@@H](CCC(=O)O)C(=O)N[C@H](C(=O)N[C@@H](Cc1ccc(OP(=O)(O)O)cc1)C(=O)N[C@@H](CCC(=O)O)C(=O)N[C@H](C(=O)N[C@@H](CC(C)C)C(=O)N[C@@H](CCCCN)C(=O)NCC(=O)O)[C@@H](C)O)[C@@H](C)O)[C@@H](C)O | Tyrosine-protein kinase CSK (CSK, Homo sapiens, UniProt P41240) | binding, bead pulldown western blot | DG-75 cell lysate | with: ITAM peptide beads | lowest concentration reducing signal | competing concentration | 40 µM
CC1=C(/C=C/C(C)=C\C=C\C(C)=C\C=O)C(C)(C)CCC1 | Rhodopsin, apoprotein (opsin) (RHO, Bos taurus, UniProt P02699) | regenerated pigment stability, thermal shift, BFC probe | ROS disk membranes |  |  | melting temperature | 70.5 °C
CC(=O)[C@]12NC(C)(C)C[C@@]1(C)C(=O)C1=C2c2c(c3c4n2C(C)(C)CC2=C4[C@@]4(CC(C)(C)N[C@@](C)(C4)C2=O)CC3(C)C)C(=O)C(C)(C)N1 (racemic) | Kappa-type opioid receptor (OPRK1, Homo sapiens, UniProt P41145) | agonist, cAMP | CHO | concentration not given |  | agonist activity | inactive
[Ru+2].[Ru+2].c1cnc2c(c1)c1nc(-c3ccc(OCCOCCOCCOc4ccc(-c5nc6c7cccnc7c7ncccc7c6[nH]5)cc4)cc3)[nH]c1c1cccnc12.c1cnc2c(c1)ccc1cccnc12.c1cnc2c(c1)ccc1cccnc12.c1cnc2c(c1)ccc1cccnc12.c1cnc2c(c1)ccc1cccnc12 | T1, DNA hairpin, hairpin, TTTT loop | BLI |  | pH 7.04, Na+ 100 mM |  | Kd | 1.2 µM
COc1ccc(Cn2c(=O)n(O)c(=O)c3ccccc32)cc1 | Flap endonuclease 1 (Homo sapiens, UniProt P39748) | inhibitor |  | with: double-flap substrate DF1 |  | kcat | 3.24 ± 0.183 s⁻¹
Nc1ncc2ncn([C@@H]3O[C@@H]4COP(=O)(O)O[C@H]5[C@@H](O)[C@H](n6cnc7cnc(N)nc76)O[C@@H]5COP(=O)(O)O[C@H]4[C@H]3O)c2n1 | ydaO riboswitch, Bacillus subtilis, wild type | competition gel shift |  | up to 200 µM, with: c-di-AMP |  | binding | no binding
Cc1cc(N2CCC(CO)(C3CC3)C2=O)cc(C(=O)NCc2cc(F)cc(-c3cnn(C)c3)c2)n1 (stereo not shown) | Proline--tRNA ligase | thermal shift |  | with: L-proline 2 mM |  | melting temperature | 75.1 °C

For quick reference, copied from above:
SMILES | target | assay | system | conditions | scale | quantity | value
CC(=O)N[C@@H](CC(=O)O)C(=O)N[C@@H](CCC(=O)O)C(=O)N[C@H](C(=O)N[C@@H](CC(=O)O)C(=O)Nc1ccc2c(C)cc(=O)oc2c1)C(C)C | Caspase-7 (CASP7, Homo sapiens, UniProt P55210) | substrate cleavage, substrate, fluorogenic AMC release |  | enzyme 0.25 activity units/µL |  | Vmax | 1270 ± 38.8 RFU/min
Cc1cc(N2CC[C@@](C#N)(C3(C)CC3)C2=O)cc(C(=O)NCc2cc(F)cc(-c3cnn(C)c3)c2)n1 | Proline--tRNA ligase | thermal shift |  | with: L-proline and ATP 2 mM |  | melting temperature | 81.5 °C
CC(C)C[C@H](NC(=O)[C@H](CC(C)C)NC(=O)[C@H](CCC(=O)O)NC(=O)[C@@H](N)CS)C(=O)O | PPO3 | enzyme activity, inhibitor |  | 200 µM |  | remaining activity | 40.6%
CSCC[C@H](NC(=O)[C@H](CO)NC(=O)[C@@H](NC(=O)[C@H](CCC(N)=O)NC(=O)[C@@H](CCCNC(=N)N)NC(=O)[C@@H](CCCNC(=N)N)NC(=O)[C@@H](CCCCN)NC(=O)[C@@H](CCCNC(=N)N)NC(C)=O)[C@@H](C)O)C(=O)N[C@H](C(=O)N[C@@H](CC(=O)O)C(=O)N[C@@H](Cc1ccccc1)C(=O)N[C@@H](Cc1ccc(O)cc1)C(=O)N[C@@H](Cc1c[nH]cn1)C(=O)N[C@@H](CO)C(=O)N[C@H](CCCCN)C(=O)N[C@H](CCCNC(=N)N)C(=O)N[C@H](CCCNC(=N)N)C(N)=O)[C@@H](C)O | Proliferating cell nuclear antigen (PCNA, Homo sapiens, UniProt P12004) | binding, isothermal titration calorimetry |  | pH 7.4, 25 °C, 400 mM NaCl, with: p21 peptide |  | entropic term −TΔS | 12.9 ± 0.478 kcal/mol
